Experimental data collected from several papers.
Every numbered part comes from another study and shows a few of its results, in no order.
UniProt P42336, sequence (whole entry, unmodified, looked up): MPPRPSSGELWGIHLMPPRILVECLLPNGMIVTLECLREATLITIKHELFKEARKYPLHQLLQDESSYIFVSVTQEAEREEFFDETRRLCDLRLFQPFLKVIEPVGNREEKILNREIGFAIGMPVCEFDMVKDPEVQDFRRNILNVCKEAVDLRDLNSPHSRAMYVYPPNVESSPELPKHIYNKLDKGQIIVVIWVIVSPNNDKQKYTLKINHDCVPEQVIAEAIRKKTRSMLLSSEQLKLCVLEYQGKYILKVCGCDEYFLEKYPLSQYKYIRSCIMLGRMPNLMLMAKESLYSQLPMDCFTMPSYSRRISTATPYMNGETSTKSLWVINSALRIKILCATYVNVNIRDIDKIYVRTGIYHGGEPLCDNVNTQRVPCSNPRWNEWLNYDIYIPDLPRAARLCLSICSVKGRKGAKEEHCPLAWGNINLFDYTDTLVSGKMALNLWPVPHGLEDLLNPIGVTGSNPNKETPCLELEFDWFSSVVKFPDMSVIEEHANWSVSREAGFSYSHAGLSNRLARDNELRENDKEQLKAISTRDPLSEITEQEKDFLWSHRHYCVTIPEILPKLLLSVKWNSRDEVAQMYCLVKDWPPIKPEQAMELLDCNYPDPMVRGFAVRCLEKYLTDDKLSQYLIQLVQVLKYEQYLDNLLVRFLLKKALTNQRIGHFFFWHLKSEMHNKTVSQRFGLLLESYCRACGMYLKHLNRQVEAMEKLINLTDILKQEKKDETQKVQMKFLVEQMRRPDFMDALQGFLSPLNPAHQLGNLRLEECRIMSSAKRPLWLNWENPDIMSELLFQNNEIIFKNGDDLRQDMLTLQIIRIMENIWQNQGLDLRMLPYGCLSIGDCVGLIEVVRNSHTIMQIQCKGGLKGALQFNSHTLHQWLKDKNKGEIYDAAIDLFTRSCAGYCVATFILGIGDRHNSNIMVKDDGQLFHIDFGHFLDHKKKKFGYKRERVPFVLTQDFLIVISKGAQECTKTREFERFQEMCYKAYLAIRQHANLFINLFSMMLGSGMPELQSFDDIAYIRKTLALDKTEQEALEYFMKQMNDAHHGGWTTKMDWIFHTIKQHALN
UniProt O96013, sequence (whole entry, looked up): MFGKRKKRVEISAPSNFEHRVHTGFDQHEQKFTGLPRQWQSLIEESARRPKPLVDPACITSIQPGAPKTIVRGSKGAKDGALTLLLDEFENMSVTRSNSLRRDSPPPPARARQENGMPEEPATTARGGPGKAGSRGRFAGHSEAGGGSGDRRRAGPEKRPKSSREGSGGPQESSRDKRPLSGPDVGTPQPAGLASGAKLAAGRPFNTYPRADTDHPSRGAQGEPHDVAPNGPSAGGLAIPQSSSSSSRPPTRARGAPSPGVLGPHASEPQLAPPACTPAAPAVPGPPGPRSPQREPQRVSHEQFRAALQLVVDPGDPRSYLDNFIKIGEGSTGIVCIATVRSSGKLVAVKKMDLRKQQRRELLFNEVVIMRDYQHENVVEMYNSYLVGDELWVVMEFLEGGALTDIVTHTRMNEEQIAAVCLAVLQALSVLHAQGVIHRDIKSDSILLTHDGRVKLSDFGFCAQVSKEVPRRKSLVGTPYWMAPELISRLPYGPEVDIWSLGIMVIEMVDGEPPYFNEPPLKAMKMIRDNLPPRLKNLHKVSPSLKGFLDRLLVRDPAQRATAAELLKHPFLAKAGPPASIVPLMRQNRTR
UniProt Q9UL54, sequence (whole entry, looked up): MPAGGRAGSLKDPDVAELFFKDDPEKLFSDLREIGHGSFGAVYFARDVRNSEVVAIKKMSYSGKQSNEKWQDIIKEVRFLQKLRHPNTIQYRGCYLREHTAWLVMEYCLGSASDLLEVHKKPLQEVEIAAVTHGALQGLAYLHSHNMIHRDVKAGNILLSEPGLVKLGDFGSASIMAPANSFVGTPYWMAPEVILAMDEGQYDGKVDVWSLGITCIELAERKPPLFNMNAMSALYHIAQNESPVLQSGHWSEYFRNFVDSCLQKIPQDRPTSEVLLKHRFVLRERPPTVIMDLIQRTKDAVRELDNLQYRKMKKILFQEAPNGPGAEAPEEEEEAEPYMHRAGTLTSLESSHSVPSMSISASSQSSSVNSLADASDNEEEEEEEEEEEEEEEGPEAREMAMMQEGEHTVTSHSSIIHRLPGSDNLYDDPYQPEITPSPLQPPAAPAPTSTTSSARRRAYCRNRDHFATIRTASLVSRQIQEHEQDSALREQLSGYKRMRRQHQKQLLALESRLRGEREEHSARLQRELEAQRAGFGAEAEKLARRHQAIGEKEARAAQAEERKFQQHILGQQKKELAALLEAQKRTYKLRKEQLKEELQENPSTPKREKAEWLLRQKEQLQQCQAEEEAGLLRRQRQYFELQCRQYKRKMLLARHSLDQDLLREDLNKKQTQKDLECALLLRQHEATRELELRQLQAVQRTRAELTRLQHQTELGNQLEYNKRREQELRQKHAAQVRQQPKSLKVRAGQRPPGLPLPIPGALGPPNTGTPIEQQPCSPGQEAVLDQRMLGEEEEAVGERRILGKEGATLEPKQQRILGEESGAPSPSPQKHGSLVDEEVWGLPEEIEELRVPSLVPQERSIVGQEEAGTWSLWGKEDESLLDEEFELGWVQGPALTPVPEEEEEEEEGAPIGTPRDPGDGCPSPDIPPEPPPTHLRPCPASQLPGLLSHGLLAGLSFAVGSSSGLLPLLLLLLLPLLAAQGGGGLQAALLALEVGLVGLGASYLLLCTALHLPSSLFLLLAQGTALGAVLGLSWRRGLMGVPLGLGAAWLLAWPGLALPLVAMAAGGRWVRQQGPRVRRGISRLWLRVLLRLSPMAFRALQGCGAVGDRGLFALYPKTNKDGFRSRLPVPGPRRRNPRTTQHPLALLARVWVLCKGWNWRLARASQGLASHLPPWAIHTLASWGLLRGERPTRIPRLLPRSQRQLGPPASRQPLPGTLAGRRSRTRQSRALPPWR
UniProt Q5VT25, sequence (whole entry, looked up): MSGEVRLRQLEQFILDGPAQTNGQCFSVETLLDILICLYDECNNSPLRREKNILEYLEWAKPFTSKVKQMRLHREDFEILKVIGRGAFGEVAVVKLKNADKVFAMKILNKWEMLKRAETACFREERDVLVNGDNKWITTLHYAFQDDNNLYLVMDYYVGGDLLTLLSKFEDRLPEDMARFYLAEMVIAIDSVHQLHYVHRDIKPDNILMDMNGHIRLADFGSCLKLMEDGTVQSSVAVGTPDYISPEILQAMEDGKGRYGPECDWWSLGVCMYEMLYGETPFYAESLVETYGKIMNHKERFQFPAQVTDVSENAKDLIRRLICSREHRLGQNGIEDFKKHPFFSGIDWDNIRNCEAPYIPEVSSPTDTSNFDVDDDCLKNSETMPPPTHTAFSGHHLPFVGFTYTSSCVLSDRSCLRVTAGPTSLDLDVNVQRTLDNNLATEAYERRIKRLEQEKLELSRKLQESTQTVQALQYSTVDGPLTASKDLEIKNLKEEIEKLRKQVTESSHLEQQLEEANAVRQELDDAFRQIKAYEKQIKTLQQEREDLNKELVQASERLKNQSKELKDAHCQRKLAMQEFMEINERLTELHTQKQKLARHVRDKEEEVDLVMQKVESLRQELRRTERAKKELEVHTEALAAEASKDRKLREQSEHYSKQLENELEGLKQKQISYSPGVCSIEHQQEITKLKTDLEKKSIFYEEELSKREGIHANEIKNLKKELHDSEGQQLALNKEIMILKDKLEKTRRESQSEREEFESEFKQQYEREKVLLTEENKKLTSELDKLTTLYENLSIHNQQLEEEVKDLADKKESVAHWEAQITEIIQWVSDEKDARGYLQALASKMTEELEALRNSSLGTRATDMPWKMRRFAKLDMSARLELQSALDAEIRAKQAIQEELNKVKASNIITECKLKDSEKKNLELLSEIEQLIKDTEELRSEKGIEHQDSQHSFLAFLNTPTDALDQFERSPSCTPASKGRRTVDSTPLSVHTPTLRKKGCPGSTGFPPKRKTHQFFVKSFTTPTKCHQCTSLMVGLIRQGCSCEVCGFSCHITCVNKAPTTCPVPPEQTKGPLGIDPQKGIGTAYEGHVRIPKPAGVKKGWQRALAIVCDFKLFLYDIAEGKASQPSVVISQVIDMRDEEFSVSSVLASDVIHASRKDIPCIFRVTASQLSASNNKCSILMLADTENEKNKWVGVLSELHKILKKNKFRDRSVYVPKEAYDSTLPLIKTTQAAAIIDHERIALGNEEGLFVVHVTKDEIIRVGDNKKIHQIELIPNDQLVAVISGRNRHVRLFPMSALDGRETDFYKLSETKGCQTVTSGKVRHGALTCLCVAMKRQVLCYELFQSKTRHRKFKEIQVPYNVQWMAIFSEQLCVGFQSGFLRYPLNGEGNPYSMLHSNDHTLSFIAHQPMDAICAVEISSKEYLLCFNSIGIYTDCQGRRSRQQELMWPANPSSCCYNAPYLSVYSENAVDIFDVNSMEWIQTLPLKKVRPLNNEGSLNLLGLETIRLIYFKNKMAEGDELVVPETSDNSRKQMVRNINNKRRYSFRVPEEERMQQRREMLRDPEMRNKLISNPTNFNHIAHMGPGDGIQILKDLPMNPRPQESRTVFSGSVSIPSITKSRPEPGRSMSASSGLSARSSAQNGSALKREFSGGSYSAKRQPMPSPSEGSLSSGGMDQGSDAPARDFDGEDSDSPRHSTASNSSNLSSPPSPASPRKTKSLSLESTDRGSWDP

Block 1
Target: Beta-1 adrenergic receptor (ADRB1, Homo sapiens, UniProt P08588)
UniProt P08588, sequence (whole entry, looked up): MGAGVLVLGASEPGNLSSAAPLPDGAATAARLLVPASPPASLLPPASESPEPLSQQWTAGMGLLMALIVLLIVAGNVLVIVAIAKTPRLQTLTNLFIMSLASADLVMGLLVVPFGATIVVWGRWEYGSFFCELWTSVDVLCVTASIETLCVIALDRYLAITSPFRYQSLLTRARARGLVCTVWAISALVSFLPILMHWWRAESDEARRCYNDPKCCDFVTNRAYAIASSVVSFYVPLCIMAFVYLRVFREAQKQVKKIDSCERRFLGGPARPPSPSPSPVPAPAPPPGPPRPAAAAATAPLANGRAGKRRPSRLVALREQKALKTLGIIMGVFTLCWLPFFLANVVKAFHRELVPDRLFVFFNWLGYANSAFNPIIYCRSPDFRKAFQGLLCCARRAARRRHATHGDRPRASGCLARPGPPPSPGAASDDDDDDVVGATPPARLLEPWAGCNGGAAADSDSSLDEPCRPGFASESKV
Mode: agonist
| SMILES | EC50 [µM] |
| --- | --- |
| COc1ccccc1N1CCN(C(=O)c2ccc(-c3cccc(C(F)(F)F)c3)o2)CC1 | ≥ 100 |
| COCCNC[C@@H]1C=C(C)[C@H](Cc2nnc(-c3ccc(N(C)C)cc3)o2)C[C@H]1C(C)C | ≥ 100 |
| O=C1c2ccccc2C(=O)N1c1ccc2ccccc2n1 | ≥ 100 |
| CC#CCn1cc2c3c(cccc31)[C@H](CC(C)C)N[C@H](C(=O)NCCN1CCOCC1)C2 | ≥ 100 |
| Cn1ccnc1C(O)c1cc2n(n1)CCN(c1ncnc3[nH]cnc13)C2 (stereo not drawn) | ≥ 100 |
| CCCc1cc(=O)n2nc(N(CC)Cc3cnn(C)c3)sc2n1 | ≥ 100 |
| Cn1nnnc1SCCCNCc1ccccc1OCc1ccccc1Cl | ≥ 100 |
| CC(=O)Oc1ccc2cc(-c3nc4c(s3)CCc3ccccc3-4)c(=O)oc2c1 | ≥ 100 |
| CCN(Cc1cccs1)c1ncnc2ccc(-c3ccc4c(c3)OCO4)cc12 | ≥ 100 |
| O=C(Nc1ccc([C@@H](O)[C@H]2COCC(=O)N2Cc2ccc(F)cc2)cc1)c1ccc2c(c1)OCO2 | ≥ 100 |
| NCCCN(CCCCNCCCNC(=O)CCc1ccc(O)c(O)c1)C(=O)CCc1ccc(O)c(O)c1 | 7.08 |
| CN1CCN(c2ccccc2CNCc2ccccc2)CC1 | ≥ 100 |
| CCN(c1cc(-c2ccc(N3CCN(C)CC3)nc2)cc(C(=O)NCc2c3c(c(C)[nH]c2=O)CCCC3)c1C)C1CCOCC1 | ≥ 100 |

Block 2
Target: Tyrosine-protein kinase ITK/TSK (ITK, Homo sapiens, UniProt Q08881)
Observed: enzyme activity
Mode: inhibitor
Concentration: 0.5 µM
Relative to: control
Residues (Q08881 1-620): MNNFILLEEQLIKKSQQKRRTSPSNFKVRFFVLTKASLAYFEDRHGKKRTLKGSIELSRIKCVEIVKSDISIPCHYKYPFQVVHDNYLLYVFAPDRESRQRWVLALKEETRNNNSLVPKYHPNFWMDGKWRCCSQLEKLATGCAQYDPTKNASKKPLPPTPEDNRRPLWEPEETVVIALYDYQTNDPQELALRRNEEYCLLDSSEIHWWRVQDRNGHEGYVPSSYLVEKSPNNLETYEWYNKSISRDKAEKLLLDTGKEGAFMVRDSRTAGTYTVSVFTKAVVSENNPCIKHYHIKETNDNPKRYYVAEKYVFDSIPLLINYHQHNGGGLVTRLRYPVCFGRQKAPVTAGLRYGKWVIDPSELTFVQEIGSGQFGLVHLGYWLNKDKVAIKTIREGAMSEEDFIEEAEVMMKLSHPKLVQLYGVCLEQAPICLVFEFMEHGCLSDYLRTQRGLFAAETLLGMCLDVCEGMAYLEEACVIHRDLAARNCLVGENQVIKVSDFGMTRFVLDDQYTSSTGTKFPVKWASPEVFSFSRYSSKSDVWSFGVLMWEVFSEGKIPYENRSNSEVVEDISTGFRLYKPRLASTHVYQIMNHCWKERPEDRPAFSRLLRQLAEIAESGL
| SMILES | remaining activity |
| --- | --- |
| c1ccc2c(-c3ccncc3)c[nH]c2c1 | 94.8% |
| Cc1cc(Nc2cc(N3CCN(C)CC3)nc(Sc3ccc(NC(=O)C4CC4)cc3)n2)[nH]n1 | 98.7% |
| c1ccc(-c2n[nH]c3c2oc2ccccc23)cc1 | 80.4% |
| O=C(c1cc2cc(O)ccc2[nH]1)c1cc2cc(O)ccc2[nH]1 | 77.7% |
| O=c1cc(N2CCOCC2)oc2c(-c3ccccc3)cccc12 | 93.3% |
| O=C1Nc2ccc(Br)cc2/C1=C/c1cc2c([nH]1)CCCC2 | 87.5% |
| COc1cccc(-c2cc(=O)c3ccccc3o2)c1N | 96.5% |
| N#Cc1cnc2cnc(NCc3cccnc3)cc2c1Nc1ccc(F)c(Cl)c1 | 99.1% |
| O=Nc1c(-c2c(O)[nH]c3cc(Br)ccc23)[nH]c2ccccc12 | 46.6% |
| O=C1NC(=O)c2c1c1c3ccccc3[nH]c1n1cncc21 | 71.4% |
| CN(C)S(=O)(=O)c1ccc2c(c1)/C(=C/c1cc3c([nH]1)CCCC3)C(=O)N2 | 61.2% |

Block 3
SMILES: CNC(=O)c1ccc(Nc2ncc(C(F)(F)F)c(NCc3nccnc3N(C)S(C)(=O)=O)n2)cc1
Concentration: 0.1 µM
| target | assay | remaining binding |
| --- | --- | --- |
| RAF proto-oncogene serine/threonine-protein kinase (RAF1, Homo sapiens, UniProt P04049) | cell-free assay, competition with immobilised ligand | 97% |
| Serine/threonine-protein kinase TAO2 (TAOK2, Homo sapiens, UniProt Q9UL54) | cell-free assay, competition with immobilised ligand | 92% |
| Mitogen-activated protein kinase 15 (MAPK15, Homo sapiens, UniProt Q8TD08) | cell-free assay, competition with immobilised ligand | 40% |
| Phosphatidylinositol 4,5-bisphosphate 3-kinase catalytic subunit alpha isoform (PIK3CA, Homo sapiens, UniProt P42336, E545A) | cell-free assay, competition with immobilised ligand | 98% |
| Serine/threonine-protein kinase SIK3 (SIK3, Homo sapiens, UniProt Q9Y2K2) | cell-free assay, competition with immobilised ligand | 82% |
| Serine/threonine-protein kinase PAK 4 (PAK4, Homo sapiens, UniProt O96013) | cell-free assay, competition with immobilised ligand | 58% |
| Serine/threonine-protein kinase pim-3 (PIM3, Homo sapiens, UniProt Q86V86) | cell-free assay, competition with immobilised ligand | 82% |
| TGF-beta receptor type-1 (TGFBR1, Homo sapiens, UniProt P36897) | cell-free assay, competition with immobilised ligand | 87% |
| Serine/threonine-protein kinase MRCK alpha (CDC42BPA, Homo sapiens, UniProt Q5VT25) | cell-free assay, competition with immobilised ligand | 98% |
| Receptor-type tyrosine-protein kinase FLT3 (FLT3, Homo sapiens, UniProt P36888, D835H) | cell-free assay, competition with immobilised ligand | 9.8% |
| Serine/threonine-protein kinase tousled-like 1 (TLK1, Homo sapiens, UniProt Q9UKI8) | cell-free assay, competition with immobilised ligand | 73% |
| Homeodomain-interacting protein kinase 4 (HIPK4, Homo sapiens, UniProt Q8NE63) | cell-free assay, competition with immobilised ligand | 54% |
| Ephrin type-A receptor 3 (EPHA3, Homo sapiens, UniProt P29320) | cell-free assay, competition with immobilised ligand | 82% |
| AP2-associated protein kinase 1 (AAK1, Homo sapiens, UniProt Q2M2I8) | binding | 80% |
| Receptor-type tyrosine-protein kinase FLT3 (FLT3, Homo sapiens, UniProt P36888, R834Q) | cell-free assay, competition with immobilised ligand | 64% |
| Ephrin type-B receptor 1 (EPHB1, Homo sapiens, UniProt P54762) | cell-free assay, competition with immobilised ligand | 87% |
| Phosphatidylinositol 4,5-bisphosphate 3-kinase catalytic subunit alpha isoform (PIK3CA, Homo sapiens, UniProt P42336, H1047Y) | cell-free assay, competition with immobilised ligand | 100% |
| TRAF2 and NCK-interacting protein kinase (TNIK, Homo sapiens, UniProt Q9UKE5) | cell-free assay, competition with immobilised ligand | 65% |
| Serine/threonine-protein kinase 10 (STK10, Homo sapiens, UniProt O94804) | cell-free assay, competition with immobilised ligand | 77% |
| Serine/threonine-protein kinase WNK2 (WNK2, Homo sapiens, UniProt Q9Y3S1) | cell-free assay, competition with immobilised ligand | 94% |
| Leucine-rich repeat serine/threonine-protein kinase 2 (LRRK2, Homo sapiens, UniProt Q5S007, G2019S) | cell-free assay, competition with immobilised ligand | 65% |

Block 4
SMILES: CC(C)n1cnc(-c2ccc(F)cc2)c1-c1ncc(C(=O)Nc2ccc(N3CCN(C)CC3)cc2)[nH]1
| assay | test system | setting | patients with TEAE [%] |
| --- | --- | --- | --- |
| phase 2a trial | idiopathic pulmonary fibrosis patients | oral, 60 mg once daily, blood/lymphatic disorders, grade 3 | 0 |
| phase 2a trial | patients with idiopathic pulmonary fibrosis | 30 mg once daily, endocrine disorders SOC, grade 5 | 0 |
| phase 2a trial | idiopathic pulmonary fibrosis patients | oral, 30 mg once daily, renal/urinary disorders, grade 1 | 2 |
| phase 2a trial | idiopathic pulmonary fibrosis patients | oral, dose not given, urine red cells, grade 2, all arms | 0 |
| phase 2a trial | patients with idiopathic pulmonary fibrosis | dose not given, atopic dermatitis, grade 5, all arms | 0 |
| refers to: free thyroxine decreased | idiopathic pulmonary fibrosis patients | 60 mg once daily | 0 |
| phase 2a trial | idiopathic pulmonary fibrosis patients | oral, dose not given, CK-MB increased, grade 4, all arms | 0 |
| phase 2a trial | patients with idiopathic pulmonary fibrosis | 60 mg once daily, skin papilloma, maximum intensity grade 5 | 0 |
| phase 2a trial | idiopathic pulmonary fibrosis patients | oral, 60 mg once daily, CK-MB increased, grade 1 | 1 |

A few entries again (block 4):
| assay | test system | setting | patients with TEAE [%] |
| --- | --- | --- | --- |
| phase 2a trial | patients with idiopathic pulmonary fibrosis | dose not given, atopic dermatitis, grade 5, all arms | 0 |
| refers to: free thyroxine decreased | idiopathic pulmonary fibrosis patients | 60 mg once daily | 0 |
| phase 2a trial | idiopathic pulmonary fibrosis patients | oral, dose not given, CK-MB increased, grade 4, all arms | 0 |
| phase 2a trial | patients with idiopathic pulmonary fibrosis | 60 mg once daily, skin papilloma, maximum intensity grade 5 | 0 |
